# Published values pooled from the literature.
# Numbered parts are unrelated; each lists some results of a single study.
# Chain of UniProt P35368 (whole entry, looked up): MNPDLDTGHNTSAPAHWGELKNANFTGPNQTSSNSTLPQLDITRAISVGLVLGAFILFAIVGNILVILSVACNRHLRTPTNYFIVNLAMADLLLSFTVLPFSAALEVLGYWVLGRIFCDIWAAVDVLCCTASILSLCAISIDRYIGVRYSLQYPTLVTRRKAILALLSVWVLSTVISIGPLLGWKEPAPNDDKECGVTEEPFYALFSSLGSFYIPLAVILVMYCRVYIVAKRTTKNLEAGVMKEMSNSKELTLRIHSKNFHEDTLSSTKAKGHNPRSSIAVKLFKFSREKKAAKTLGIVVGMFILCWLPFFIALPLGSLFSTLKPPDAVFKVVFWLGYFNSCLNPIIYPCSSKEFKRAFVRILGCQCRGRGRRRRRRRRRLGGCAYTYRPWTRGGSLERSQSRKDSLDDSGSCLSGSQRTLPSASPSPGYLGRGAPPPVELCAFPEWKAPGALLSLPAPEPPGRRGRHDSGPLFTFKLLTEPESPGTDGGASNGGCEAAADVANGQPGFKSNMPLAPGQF
# Chain of UniProt P25100 (whole entry, looked up): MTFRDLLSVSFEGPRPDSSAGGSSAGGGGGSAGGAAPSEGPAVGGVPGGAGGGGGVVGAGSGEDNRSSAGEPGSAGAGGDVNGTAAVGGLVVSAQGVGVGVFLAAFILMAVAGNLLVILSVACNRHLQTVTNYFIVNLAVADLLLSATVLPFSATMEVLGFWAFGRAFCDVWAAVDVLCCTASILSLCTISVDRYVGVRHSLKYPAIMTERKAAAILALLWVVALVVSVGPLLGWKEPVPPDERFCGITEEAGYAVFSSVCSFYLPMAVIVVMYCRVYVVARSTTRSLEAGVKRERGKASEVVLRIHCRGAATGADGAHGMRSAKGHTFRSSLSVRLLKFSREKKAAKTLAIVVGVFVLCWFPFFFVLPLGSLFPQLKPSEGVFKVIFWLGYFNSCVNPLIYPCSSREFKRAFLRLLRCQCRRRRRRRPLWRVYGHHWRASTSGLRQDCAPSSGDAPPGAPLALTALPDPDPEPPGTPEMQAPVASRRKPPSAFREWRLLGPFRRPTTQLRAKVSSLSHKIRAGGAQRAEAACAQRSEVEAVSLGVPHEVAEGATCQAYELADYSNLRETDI
# Chain of UniProt P35462 (whole entry, looked up): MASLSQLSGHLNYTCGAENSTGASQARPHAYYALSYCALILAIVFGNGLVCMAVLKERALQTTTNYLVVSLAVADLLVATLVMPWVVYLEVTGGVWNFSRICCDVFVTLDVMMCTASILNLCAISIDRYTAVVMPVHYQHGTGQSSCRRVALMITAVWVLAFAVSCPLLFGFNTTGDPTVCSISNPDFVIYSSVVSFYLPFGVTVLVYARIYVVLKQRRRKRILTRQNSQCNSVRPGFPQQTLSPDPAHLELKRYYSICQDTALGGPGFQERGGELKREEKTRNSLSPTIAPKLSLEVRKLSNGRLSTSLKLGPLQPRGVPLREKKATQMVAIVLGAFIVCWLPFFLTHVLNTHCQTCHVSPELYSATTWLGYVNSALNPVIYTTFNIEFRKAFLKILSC
# Chain of UniProt P18825 (whole entry, looked up): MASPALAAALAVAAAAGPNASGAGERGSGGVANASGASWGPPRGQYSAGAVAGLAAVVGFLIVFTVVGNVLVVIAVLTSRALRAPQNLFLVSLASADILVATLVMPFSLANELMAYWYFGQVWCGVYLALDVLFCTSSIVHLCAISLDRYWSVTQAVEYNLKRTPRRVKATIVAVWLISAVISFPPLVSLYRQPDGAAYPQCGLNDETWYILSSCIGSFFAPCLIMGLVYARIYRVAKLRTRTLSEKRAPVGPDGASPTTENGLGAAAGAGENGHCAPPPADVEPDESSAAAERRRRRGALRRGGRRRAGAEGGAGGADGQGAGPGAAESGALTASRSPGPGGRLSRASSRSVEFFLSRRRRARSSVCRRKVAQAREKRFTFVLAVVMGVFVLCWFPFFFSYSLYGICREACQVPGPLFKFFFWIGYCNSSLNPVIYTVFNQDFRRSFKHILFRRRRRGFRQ
# Chain of UniProt P13945 (whole entry, looked up): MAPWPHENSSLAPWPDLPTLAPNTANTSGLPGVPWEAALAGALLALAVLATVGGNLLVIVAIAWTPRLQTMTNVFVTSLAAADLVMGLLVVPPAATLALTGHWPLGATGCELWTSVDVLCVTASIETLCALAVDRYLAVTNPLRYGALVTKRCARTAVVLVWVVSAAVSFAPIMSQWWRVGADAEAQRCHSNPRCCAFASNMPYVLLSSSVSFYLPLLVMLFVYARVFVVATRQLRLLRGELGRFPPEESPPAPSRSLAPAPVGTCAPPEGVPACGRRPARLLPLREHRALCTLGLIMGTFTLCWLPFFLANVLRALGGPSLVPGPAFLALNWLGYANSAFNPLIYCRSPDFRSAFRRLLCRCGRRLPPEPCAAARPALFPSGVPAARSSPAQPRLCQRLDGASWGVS
# Chain of UniProt P35348 (whole entry, looked up): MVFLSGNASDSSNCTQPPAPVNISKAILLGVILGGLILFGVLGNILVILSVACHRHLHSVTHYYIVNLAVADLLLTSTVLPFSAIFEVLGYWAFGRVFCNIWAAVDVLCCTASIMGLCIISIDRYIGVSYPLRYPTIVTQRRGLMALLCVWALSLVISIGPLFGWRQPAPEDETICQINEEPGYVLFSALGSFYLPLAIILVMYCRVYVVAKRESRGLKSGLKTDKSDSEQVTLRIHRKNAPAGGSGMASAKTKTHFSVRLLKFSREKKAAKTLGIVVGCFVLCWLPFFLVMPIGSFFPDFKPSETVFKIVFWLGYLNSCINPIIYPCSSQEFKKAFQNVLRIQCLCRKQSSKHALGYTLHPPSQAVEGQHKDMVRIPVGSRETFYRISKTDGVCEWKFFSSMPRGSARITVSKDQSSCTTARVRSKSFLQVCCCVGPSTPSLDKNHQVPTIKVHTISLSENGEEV
# Chain of UniProt P34969 (whole entry, looked up): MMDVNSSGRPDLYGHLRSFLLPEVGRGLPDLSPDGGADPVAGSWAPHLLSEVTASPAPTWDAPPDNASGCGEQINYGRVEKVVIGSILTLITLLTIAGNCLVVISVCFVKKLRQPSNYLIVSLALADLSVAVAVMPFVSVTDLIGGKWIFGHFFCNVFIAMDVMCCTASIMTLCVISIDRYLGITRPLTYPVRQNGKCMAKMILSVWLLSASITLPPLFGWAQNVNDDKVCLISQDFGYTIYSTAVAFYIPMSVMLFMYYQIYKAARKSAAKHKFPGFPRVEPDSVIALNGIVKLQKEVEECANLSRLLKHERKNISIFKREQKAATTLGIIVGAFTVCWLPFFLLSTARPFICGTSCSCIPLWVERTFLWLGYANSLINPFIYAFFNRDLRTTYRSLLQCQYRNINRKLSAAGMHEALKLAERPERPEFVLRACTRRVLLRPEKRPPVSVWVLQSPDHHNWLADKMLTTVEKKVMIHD
# Chain of UniProt P08172 (whole entry, looked up): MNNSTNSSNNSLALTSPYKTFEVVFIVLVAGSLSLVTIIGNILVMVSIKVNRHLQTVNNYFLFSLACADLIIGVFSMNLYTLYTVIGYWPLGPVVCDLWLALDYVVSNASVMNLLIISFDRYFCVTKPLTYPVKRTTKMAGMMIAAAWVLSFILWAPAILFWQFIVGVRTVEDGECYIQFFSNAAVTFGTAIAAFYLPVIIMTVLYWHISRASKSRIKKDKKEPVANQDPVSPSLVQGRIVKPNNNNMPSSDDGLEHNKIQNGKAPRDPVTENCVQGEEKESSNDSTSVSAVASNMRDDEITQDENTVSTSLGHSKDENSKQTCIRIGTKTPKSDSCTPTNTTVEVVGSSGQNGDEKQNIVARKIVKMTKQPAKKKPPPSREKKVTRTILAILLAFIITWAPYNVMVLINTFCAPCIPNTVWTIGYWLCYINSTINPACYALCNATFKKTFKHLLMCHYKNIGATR
# Chain of UniProt Q99720 (whole entry, looked up): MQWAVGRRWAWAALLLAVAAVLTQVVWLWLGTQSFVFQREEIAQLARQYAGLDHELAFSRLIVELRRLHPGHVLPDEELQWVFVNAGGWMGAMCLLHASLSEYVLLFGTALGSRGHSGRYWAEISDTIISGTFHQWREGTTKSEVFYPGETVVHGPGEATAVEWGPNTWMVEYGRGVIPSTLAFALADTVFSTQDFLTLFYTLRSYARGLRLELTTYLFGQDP

# Sample 1
# SMILES: C[C@H](c1ccc(F)cc1)N(Cc1ccc(Cl)c(C(=O)O)c1)C(=O)c1cnc2ccccc2c1
# Read-out: cell-free assay
# Concentration: 10 µM
target,inhibition
"SIGMAR1 (Homo sapiens, UniProt Q99720)",-17.2%
"ADRA2C (Homo sapiens, UniProt P18825)",14.2%
"DRD1 (Homo sapiens, UniProt P21728)",-16%
"CHRM2 (Homo sapiens, UniProt P08172)",1.24%
"DRD3 (Homo sapiens, UniProt P35462)",-14.1%
"ADRA1A (Homo sapiens, UniProt P35348)",11.5%
"ADRB3 (Homo sapiens, UniProt P13945)",-5.1%
"ADRA1D (Homo sapiens, UniProt P25100)",10.1%
"HRH4 (Homo sapiens, UniProt Q9H3N8)",3.41%
"HRH3 (Homo sapiens, UniProt Q9Y5N1)",-8.13%
"HTR7 (Homo sapiens, UniProt P34969)",13.8%
"ADRA1B (Homo sapiens, UniProt P35368)",-1.36%

# Sample 2
# Target: Eukaryotic initiation factor 4A-I (EIF4A1, Homo sapiens, UniProt P60842)
# Chain of UniProt P60842 (whole entry, looked up): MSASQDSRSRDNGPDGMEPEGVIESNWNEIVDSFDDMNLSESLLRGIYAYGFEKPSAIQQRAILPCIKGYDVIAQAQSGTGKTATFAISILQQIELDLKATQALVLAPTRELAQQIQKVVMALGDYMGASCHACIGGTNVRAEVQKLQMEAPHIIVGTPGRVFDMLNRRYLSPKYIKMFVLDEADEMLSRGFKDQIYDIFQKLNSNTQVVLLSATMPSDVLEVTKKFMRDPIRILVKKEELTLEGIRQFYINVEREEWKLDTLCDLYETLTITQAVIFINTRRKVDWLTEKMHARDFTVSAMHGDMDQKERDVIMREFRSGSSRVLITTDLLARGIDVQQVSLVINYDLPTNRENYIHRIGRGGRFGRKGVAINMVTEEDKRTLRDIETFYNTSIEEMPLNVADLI
# Read-out: RNA clamping
# Technique: fluorescence polarization
# Concentration: concentration not given
# Setting: mean of two replicates
# Together with: FAM-labelled poly r(AG)8 RNA
SMILES,fluorescence polarization change [mP]
COC(=O)[C@H]1C(=O)[C@@]2(NN(C)C)c3c(OC)cc(OC)cc3O[C@@]2(c2ccc(OC)cc2)[C@@H]1c1ccccc1,3.6
COC(=O)[C@@H]1[C@@H](c2ccccc2)[C@]2(c3ccc(OC)cc3)Oc3cc(OC)cc(OC)c3[C@@]23NC(N2CCOCC2)=N[C@@]13O,72.1
COC(=O)[C@@H]1[C@@H](c2ccccc2)[C@]2(c3ccc(OC)cc3)Oc3cc(OC)cc(OC)c3[C@@]23NC(C2CCCCC2)=N[C@@]13O,58.1
COC(=O)[C@@H]1[C@@H](c2ccccc2)[C@]2(c3ccc(OC)cc3)Oc3cc(OC)cc(OC)c3[C@@]23NC(c2ccc(N(C)C)cc2)=N[C@@]13O,44.6
COC(=O)[C@@H]1[C@@H](c2ccccc2)[C@]2(c3ccc(OC)cc3)Oc3cc(OC)cc(OC)c3[C@@]23OC(c2ccc(C(F)(F)F)cc2)=N[C@@]13O,0.8
C=CCN[C@@]12C(=O)[C@H](C(=O)OC)[C@@H](c3ccccc3)[C@]1(c1ccc(OC)cc1)Oc1cc(OC)cc(OC)c12,-3.8
COc1ccc([C@@]23Oc4cc(OC)cc(OC)c4[C@]2(O)c2nc(-c4cccc(OCc5ccccc5)c4)[nH]c(=O)c2[C@H]3c2ccccc2)cc1,11.1
COc1ccc([C@@]23Oc4cc(OC)cc(OC)c4[C@]2(O)C2=C(C(=O)N4CCC[C@@]4(C)N2)[C@H]3c2ccccc2)cc1,-0.7
COc1ccc([C@@]23Oc4cc(OC)cc(OC)c4[C@]2(O)[C@H](O)[C@H](C(=O)c2oc4ccccc4c2C)[C@H]3c2ccccc2)cc1,2.3
COc1cc(F)cc2c1[C@]1(O)[C@H](O)[C@@H](C#N)[C@H](c3ccccc3)[C@]1(c1ccc(Br)cc1)O2,13.3
COc1cc(OC)c2c(c1)O[C@@]1(c3ccc(Br)cc3)[C@H](c3ccccc3)C3=C(N[C@@H]4CCCN4C3=O)[C@@]21O,47.3

# Sample 3
# Target: Bromodomain-containing protein 4, BD1 (BRD4, Homo sapiens, UniProt O60885)
# Read-out: acetyl-histone H4 peptide binding
# Technique: AlphaScreen displacement
# Concentration: 50 µM
Compound,inhibition
CCOc1ccccc1C(=O)Nc1ccc2[nH]ncc2c1,2.25%
COC(=O)C(C)Sc1ccc2nnc(-c3ccc(Cl)cc3)n2n1 (centres unmarked),7.05%
Cc1ccc2c(c1)C(=NNC(=O)c1ccc(Cl)cc1)C(=O)N2,16.2%
Cl.Cl.O=C1c2c(O)ccc(O)c2C(=O)c2c(NCCNCCO)ccc(NCCNCCO)c21,99%
Cc1cc(O)nc(SCC(=O)Nc2nnc(SCC(N)=O)s2)n1,10.7%
Nc1cccc(-c2cc3c(Oc4cccc(O)c4)ncnc3[nH]2)c1,13.9%
CCn1c(SCCC(=O)O)nc2c1c(=O)[nH]c(=O)n2C,-3.55%
CC[C@H](CO)Nc1nc(NCc2ccccc2)c2ncn(C(C)C)c2n1,4.85%
CCOc1ccc(-c2csc3nc[nH]c(=O)c23)cc1,11.9%
O=c1cc(N2CCOCC2)oc2c1ccc1ccccc12,11.8%
CC[C@@H]1C(=O)N(C)c2cnc(Nc3ccc(C(=O)N[C@H]4CC[C@H](N5CCN(CC6CC6)CC5)CC4)cc3OC)nc2N1C(C)C,99.8%
CCCOc1ccc(-c2csc3nc[nH]c(=O)c23)cc1,8.05%
COC(=O)c1[nH]c2ccccc2c1NC(=O)CN(C)CC1OCCO1,3.85%
COC(=O)Cn1cc(C=C2SC(=O)NC2=O)c2ccccc21,14.2%
Cc1cc(C(C)Nc2ccccc2)c2nc(N3CCOCC3)cc(=O)n2c1 (centres unmarked),32.1%
O=C(NCc1ccco1)c1n[nH]c2ccccc12,10.8%
O=C(CCCN1CC=C(n2c(=O)[nH]c3ccccc32)CC1)c1ccc(F)cc1,30.9%
COc1ccc(Nc2nc(N)c(C(=O)c3ccc(Cl)cc3)s2)cc1,63.1%
CC(C)n1cnc2c(NCc3ccccc3)nc(NCCCO)nc21,24.8%
CC(C)(C)OC(=O)N1CCc2nc(Nc3ccc(F)cc3)ncc2C1,11.6%

# Sample 4
# Target: Calcium/calmodulin-dependent protein kinase type II subunit alpha (CAMK2A, Homo sapiens, UniProt Q9UQM7)
# Chain of UniProt Q9UQM7 (whole entry, looked up): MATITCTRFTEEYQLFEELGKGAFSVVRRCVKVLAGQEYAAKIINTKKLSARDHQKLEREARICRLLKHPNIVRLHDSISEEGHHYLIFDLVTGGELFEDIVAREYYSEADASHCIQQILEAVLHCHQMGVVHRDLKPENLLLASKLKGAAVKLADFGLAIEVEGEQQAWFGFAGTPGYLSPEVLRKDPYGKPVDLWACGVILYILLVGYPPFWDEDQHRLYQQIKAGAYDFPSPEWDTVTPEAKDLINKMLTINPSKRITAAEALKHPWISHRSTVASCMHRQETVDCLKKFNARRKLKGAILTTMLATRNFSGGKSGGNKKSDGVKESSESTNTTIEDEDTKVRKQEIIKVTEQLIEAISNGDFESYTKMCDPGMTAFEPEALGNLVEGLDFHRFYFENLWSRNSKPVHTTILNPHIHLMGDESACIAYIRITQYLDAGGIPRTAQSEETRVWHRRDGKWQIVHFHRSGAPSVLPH
# Read-out: enzyme activity
# Mode: inhibitor
# Concentration: 10 µM
Structure (SMILES),inhibition
O=C(CO)[C@@H](O[C@H]1O[C@H](CO)[C@@H](O)[C@H](O)[C@H]1O)[C@H](O)[C@H](O)CO,6%
COc1ccc(-c2coc3cc(O)cc(O)c3c2=O)cc1,-26%
CO[C@H]1/C=C/O[C@@]2(C)Oc3c(C)c(O)c4c(O)c(c(/C=N/N5CCN(C)CC5)c(O)c4c3C2=O)NC(=O)/C(C)=C\C=C\[C@H](C)[C@H](O)[C@@H](C)[C@@H](O)[C@@H](C)[C@H](OC(C)=O)[C@@H]1C,-1%
COC(=O)[C@H]1O[C@@H](Oc2cc3oc(-c4ccccc4)cc(=O)c3c(O)c2O)[C@H](O)[C@@H](O)[C@@H]1O,-5%
O=C(O)[C@H]1O[C@@H](Oc2cc3oc(-c4ccccc4)cc(=O)c3c(O)c2O)[C@H](O)[C@@H](O)[C@@H]1O,-15%
CS(=O)(=O)c1ccc([C@@H](O)[C@@H](CO)NC(=O)C(Cl)Cl)cc1,3%
COC(=O)C1=C(C)NC(C)=C(C(=O)OC)C1c1ccccc1[N+](=O)[O-],-3%
CN(CC(=O)O)C(=N)N,8%
NCCCS(=O)(=O)O,-1%
CC(C)n1c(=O)cc(N[C@@H](C)c2ccccc2)[nH]c1=O,-5%
C/C=C(\C)C(=O)O,9%
C=C1C[C@@]2(O)O[C@@]3(C[C@H]2C(C)C)[C@@H](C)CC[C@@H]13,-8%
CCOC(=O)CC(=O)O,-11%
CO[C@H]1C[C@@H]2CC[C@@H](C)[C@@](O)(O2)C(=O)C(=O)N2CCCC[C@H]2C(=O)O[C@H]([C@H](C)C[C@@H]2CC[C@@H](OC(=O)C(C)(CO)CO)[C@H](OC)C2)CC(=O)[C@H](C)/C=C(\C)[C@@H](O)[C@@H](OC)C(=O)[C@H](C)C[C@H](C)/C=C/C=C/C=C/1C,-8%
COc1ccc(C(=O)CC(=O)c2ccc(C(C)(C)C)cc2)cc1,7%
C/C=C1/[C@H](O[C@@H]2O[C@H](CO)[C@@H](O)[C@H](O)[C@H]2O)OC=C(C(=O)OC)[C@H]1CC(=O)OC[C@H]1O[C@@H](OCCc2ccc(OC(=O)C[C@@H]3C(C(=O)OC)=CO[C@@H](O[C@@H]4O[C@H](CO)[C@@H](O)[C@H](O)[C@H]4O)/C3=C/C)cc2)[C@H](O)[C@@H](O)[C@@H]1O,-39%
COc1ccc(-c2coc3cc(O)c(OC)c(O)c3c2=O)cc1O,-21%
CCCCCCCC(=O)O,-35%
CC(C)=CCc1c(-c2ccc(O)c3c2OC(C)(C)C=C3)oc2cc(O)cc(O)c2c1=O,0%

# Repeated from above (sample 3):
Compound,inhibition
CC[C@@H]1C(=O)N(C)c2cnc(Nc3ccc(C(=O)N[C@H]4CC[C@H](N5CCN(CC6CC6)CC5)CC4)cc3OC)nc2N1C(C)C,99.8%
CCCOc1ccc(-c2csc3nc[nH]c(=O)c23)cc1,8.05%
COC(=O)c1[nH]c2ccccc2c1NC(=O)CN(C)CC1OCCO1,3.85%
COC(=O)Cn1cc(C=C2SC(=O)NC2=O)c2ccccc21,14.2%
Cc1cc(C(C)Nc2ccccc2)c2nc(N3CCOCC3)cc(=O)n2c1 (centres unmarked),32.1%
O=C(NCc1ccco1)c1n[nH]c2ccccc12,10.8%
O=C(CCCN1CC=C(n2c(=O)[nH]c3ccccc32)CC1)c1ccc(F)cc1,30.9%
COc1ccc(Nc2nc(N)c(C(=O)c3ccc(Cl)cc3)s2)cc1,63.1%
CC(C)n1cnc2c(NCc3ccccc3)nc(NCCCO)nc21,24.8%
CC(C)(C)OC(=O)N1CCc2nc(Nc3ccc(F)cc3)ncc2C1,11.6%
